# Measurements of several laboratories.
# Protocols differ between the studies behind these lines. “And” joins repeats or separate records; there may be more than shown. ± marks the error that the study gave.
# UniProt P43250, sequence (whole entry, looked up): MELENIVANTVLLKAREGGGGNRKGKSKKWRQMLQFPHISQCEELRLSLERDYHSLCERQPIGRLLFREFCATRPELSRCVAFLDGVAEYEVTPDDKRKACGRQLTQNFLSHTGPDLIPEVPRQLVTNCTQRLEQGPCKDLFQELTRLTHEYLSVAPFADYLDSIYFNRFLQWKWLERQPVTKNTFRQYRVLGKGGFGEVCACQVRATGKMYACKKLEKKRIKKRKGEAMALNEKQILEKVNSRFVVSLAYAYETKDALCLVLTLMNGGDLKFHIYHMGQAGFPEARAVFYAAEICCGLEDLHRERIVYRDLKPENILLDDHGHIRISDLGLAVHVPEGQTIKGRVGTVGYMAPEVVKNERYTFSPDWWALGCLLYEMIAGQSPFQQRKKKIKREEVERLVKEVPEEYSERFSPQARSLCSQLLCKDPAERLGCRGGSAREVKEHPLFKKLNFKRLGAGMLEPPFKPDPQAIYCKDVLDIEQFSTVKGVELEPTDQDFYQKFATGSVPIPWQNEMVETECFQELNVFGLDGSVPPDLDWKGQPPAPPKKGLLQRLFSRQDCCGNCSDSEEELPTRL
# UniProt Q9DB29, sequence (whole entry, looked up): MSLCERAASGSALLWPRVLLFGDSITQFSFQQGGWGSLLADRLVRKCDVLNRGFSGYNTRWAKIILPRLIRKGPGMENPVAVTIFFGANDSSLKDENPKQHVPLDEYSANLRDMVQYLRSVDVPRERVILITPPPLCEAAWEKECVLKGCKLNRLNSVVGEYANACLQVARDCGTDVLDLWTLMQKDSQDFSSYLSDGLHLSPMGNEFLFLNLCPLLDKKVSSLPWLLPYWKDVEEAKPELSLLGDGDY
# UniProt Q5VT25, sequence (whole entry, looked up): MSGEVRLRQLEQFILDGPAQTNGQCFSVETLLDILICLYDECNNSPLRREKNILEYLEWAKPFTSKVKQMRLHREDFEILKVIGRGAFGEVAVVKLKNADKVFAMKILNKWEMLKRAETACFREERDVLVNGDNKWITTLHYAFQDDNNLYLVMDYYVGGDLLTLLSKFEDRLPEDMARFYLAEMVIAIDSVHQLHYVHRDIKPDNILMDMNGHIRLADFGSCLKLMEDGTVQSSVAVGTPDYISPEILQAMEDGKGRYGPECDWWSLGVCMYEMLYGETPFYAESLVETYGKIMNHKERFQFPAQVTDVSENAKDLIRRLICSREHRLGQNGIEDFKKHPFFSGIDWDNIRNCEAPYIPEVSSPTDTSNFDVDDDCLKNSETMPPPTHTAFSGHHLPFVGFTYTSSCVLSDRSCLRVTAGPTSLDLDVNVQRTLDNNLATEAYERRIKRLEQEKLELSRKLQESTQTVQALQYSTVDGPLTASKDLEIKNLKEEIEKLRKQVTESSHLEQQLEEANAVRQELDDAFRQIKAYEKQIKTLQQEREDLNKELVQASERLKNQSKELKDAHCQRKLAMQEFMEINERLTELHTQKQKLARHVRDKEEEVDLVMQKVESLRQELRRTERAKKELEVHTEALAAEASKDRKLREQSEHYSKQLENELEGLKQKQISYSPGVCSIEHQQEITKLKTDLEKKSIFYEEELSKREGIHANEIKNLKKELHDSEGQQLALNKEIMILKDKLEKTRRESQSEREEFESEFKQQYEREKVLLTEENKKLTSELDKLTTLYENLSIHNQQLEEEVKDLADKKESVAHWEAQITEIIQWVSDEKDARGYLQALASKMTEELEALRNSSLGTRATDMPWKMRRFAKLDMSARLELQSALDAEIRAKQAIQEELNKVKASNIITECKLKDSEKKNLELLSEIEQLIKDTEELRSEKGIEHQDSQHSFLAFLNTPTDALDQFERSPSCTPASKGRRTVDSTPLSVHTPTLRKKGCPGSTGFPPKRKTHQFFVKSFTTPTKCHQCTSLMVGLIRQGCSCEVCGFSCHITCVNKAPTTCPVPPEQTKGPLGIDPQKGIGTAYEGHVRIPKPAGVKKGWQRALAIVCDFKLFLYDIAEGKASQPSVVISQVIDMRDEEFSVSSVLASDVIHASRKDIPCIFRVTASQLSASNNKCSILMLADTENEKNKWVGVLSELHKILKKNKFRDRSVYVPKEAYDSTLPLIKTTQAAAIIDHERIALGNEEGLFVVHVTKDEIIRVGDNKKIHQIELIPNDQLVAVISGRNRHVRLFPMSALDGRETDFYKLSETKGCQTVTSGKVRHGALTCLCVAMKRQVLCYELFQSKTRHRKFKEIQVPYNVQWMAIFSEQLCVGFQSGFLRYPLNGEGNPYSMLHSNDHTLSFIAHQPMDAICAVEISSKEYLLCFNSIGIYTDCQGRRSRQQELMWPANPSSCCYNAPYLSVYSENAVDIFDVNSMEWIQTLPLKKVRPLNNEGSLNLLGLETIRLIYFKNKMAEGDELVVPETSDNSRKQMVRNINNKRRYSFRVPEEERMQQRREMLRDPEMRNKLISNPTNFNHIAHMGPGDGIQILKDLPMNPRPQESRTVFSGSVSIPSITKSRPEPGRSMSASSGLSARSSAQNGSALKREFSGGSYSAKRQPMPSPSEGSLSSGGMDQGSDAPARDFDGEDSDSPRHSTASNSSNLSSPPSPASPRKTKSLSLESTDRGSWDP
# UniProt P51813, sequence (whole entry, looked up): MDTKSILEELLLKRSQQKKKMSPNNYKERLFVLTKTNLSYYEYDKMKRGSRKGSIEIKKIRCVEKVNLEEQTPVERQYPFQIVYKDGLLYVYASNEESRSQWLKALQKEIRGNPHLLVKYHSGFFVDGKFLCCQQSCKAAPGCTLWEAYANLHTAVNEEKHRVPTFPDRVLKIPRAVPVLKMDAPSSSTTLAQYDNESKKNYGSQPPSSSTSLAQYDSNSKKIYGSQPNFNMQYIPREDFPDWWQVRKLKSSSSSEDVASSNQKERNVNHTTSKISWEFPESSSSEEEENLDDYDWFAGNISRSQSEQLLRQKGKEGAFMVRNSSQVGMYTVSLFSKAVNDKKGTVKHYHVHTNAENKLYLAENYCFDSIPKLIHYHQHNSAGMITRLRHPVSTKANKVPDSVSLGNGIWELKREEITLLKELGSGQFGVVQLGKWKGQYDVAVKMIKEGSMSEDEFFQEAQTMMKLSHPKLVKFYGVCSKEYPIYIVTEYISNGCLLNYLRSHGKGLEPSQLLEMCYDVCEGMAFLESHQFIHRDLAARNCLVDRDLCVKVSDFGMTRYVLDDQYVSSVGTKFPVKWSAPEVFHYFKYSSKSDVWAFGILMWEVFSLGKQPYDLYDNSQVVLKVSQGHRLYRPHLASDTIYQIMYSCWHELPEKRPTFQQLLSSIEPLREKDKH
# UniProt Q9Y6L6, sequence (whole entry, looked up): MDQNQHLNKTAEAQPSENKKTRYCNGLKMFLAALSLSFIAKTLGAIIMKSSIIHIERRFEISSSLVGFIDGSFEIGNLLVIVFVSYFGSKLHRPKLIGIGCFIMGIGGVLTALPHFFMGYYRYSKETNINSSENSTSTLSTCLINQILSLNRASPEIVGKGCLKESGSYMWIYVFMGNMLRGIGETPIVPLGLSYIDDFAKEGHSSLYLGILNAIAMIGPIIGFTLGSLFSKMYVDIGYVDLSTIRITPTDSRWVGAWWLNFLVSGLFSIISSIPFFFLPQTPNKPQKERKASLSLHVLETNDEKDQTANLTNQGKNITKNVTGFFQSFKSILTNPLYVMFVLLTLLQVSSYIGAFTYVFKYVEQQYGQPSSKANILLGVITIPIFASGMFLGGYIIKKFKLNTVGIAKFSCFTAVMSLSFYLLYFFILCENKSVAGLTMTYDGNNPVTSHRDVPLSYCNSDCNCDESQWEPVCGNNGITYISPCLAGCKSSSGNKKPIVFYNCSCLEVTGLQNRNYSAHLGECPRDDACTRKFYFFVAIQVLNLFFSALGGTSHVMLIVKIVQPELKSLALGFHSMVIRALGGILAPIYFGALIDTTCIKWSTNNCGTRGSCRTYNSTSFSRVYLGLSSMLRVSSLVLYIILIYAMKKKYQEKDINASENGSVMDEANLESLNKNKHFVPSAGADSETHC
# UniProt Q14012, sequence (whole entry, looked up): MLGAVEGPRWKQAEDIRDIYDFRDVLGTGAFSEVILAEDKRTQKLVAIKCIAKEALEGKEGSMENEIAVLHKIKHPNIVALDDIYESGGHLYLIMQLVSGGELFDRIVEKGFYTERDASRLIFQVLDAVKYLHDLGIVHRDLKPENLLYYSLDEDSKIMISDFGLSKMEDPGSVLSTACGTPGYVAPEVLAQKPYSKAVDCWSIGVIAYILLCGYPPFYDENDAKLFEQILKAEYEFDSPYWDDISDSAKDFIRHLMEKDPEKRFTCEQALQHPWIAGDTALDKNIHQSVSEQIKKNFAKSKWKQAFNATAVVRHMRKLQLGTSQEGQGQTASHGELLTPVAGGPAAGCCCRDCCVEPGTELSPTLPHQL
SMILES,tested on,test,test system,setting,scale,endpoint,result
CC[C@@H]1CN2CCc3c([nH]c4cccc(OC)c34)[C@@H]2C[C@@H]1/C(=C\OC)C(=O)OC,rabbit anti-mitragynine polyclonal IgG,"antigen binding, competitor, competitive indirect ELISA",10% methanol,"90 min antibody-standard, 30 min antibody-antigen incubation",,IC50,0.81 µg/mL and 0.72 µg/mL
Cc1cc(Oc2nc(N3CC[C@@H](c4ccncc4)C3)ncc2F)[nH]n1,Mycobacterium tuberculosis,OD,H37Rv PurF CRISPRi knockdown,"0.0625 µM, together with: anhydrotetracycline low",,normalised growth,2%
Cc1ccc(C2=CC(C)(C)Oc3ccc(-c4ccc(-c5ccc(C(=O)O)cc5)[nH]4)cc32)cc1,,,"CD-1 mouse, male, testis","20 mg/kg/day, 2 weeks, one day after dosing end",,tubules with failed spermatid translocation,29.3% and 7.5%
CC[C@H](C)[C@H](NC(=O)[C@H](CCCCN)NC(=O)CNC(=O)[C@H](CC(C)C)NC(=O)[C@H](Cc1ccccc1)NC(=O)[C@H](CCCCN)NC(=O)[C@H](CO)NC(=O)[C@H](Cc1ccccc1)NC(=O)[C@H](Cc1c[nH]c2ccccc12)NC(=O)[C@H](CCC(N)=O)NC(=O)[C@@H](NC(=O)[C@H](Cc1ccccc1)NC(=O)CCCCCNC(=O)CN1CCN(CC(=O)O)CCN(CC(=O)O)CCN(CC(=O)O)CC1)C(C)C)C(=O)N[C@@H](CCC(=O)O)C(=O)N1CCC[C@H]1C(=O)N[C@@H](CC(=O)O)C(=O)N[C@H](C(=O)N[C@@H](CO)C(=O)N[C@@H](CCC(N)=O)C(=O)N[C@H](C(=O)N[C@@H](CCC(N)=O)C(=O)N[C@@H](CC(=O)O)C(=O)N1CCC[C@H]1C(=O)N[C@@H](CC(N)=O)C(=O)N[C@@H](CC(=O)O)C(=O)N[C@@H](CCC(N)=O)C(=O)N[C@@H](Cc1ccc(O)cc1)C(=O)N[C@@H](CCC(=O)O)C(=O)N1CCC[C@H]1C(=O)N[C@@H](Cc1ccccc1)C(=O)O)C(C)C)C(C)C [copper-64 labelled],,,"C57BL/6 mice, thymus","vehicle, intratracheal instillation",,tissue uptake,1.18 ± 0.07 %ID/g
CC(C)[C@H]1NC(=O)C[C@H]2/C=C/CCSSC[C@@H](NC1=O)C(=O)N[C@H](Cc1cccc3ccccc13)C(=O)NCC(=O)O2,"CDC42BPA (Homo sapiens, UniProt Q5VT25)","enzyme activity, inhibitor",,10 µM,,inhibition,-3.5%
COc1ccccc1-c1n[nH]c2nc(N[C@H]3CC[C@H](NS(=O)(=O)CC(C)C)CC3)ncc12,,"bead binding, competition bead pull-down, item: LMJF.36.0180",Leishmania donovani extract,10 µM,reference: vehicle,relative abundance,0.87
CNCCO.O=C(O)C(Cl)Cl,Chenopodium album,herbicidal activity,,"15 mg/mL, 21 days, pre-emergence greenhouse",,inhibition,0%
Cc1nc2cccc(OCC(C)(C)C(=O)NC(C)C)c2c(N)c1C(=O)[O-].[Na+],Salmonella typhimurium,Ames preincubation,TA1535,"0.13 mg/plate, together with: without rat liver S9",,revertant colonies,16 ± 6 colonies/plate
CC(=O)NCCCC[C@@H]1NC(=O)[C@H](Cc2c[nH]c3c(C)cccc23)NC(=O)[C@H]([C@@H](C)O)NC(=O)[C@H](CC(N)=O)NC(=O)[C@@H](NC(C)=O)C(C)(C)SSC(C)(C)[C@@H](C(=O)N[C@@H](Cc2ccc(OCCN)cc2)C(=O)N[C@@H](Cc2ccc3ccccc3c2)C(=O)NC2(C(=O)N[C@@H](CCC(=O)O)C(=O)N[C@@H](CC(N)=O)C(=O)N[C@@H](Cc3cccnc3)C(=O)N(C)CC(N)=O)CCOCC2)NC1=O,"SLCO1B1 (Homo sapiens, UniProt Q9Y6L6)",substrate,HEK293 overexpressing transporter,"5 µM, 30 min, together with: 25 µM rifampicin",,uptake rate,0.0686 ± 0.0116 pmol/mg/min
Cc1ccc2c(n1)c(-c1cccc(S(C)(=O)=O)c1)c(C)n2C/C(F)=C/CN,NMDA glutamate receptor (rat),"binding, radioligand binding",rat tissue,"10 µM, Polyamine",,inhibition,-9%
N=C(N)NCCC[C@@H]1NC(=O)[C@H](CCCCNC(=O)CCC(NC(=S)Nc2ccc(CC3CN(CC(=O)O)CCN(CC(=O)O)CCN(CC(=O)O)CCN3CC(=O)O)cc2)C(=O)NCCCC[C@@H]2NC(=O)[C@@H](Cc3ccc(O)cc3)NC(=O)[C@H](CC(=O)O)NC(=O)CNC(=O)[C@H](CCCNC(=N)N)NC2=O)NC(=O)[C@@H](Cc2ccc(O)cc2)NC(=O)[C@H](CC(=O)O)NC(=O)CNC1=O (stereo partly shown) [scandium-44 labelled],,ex vivo γ-counting,"female athymic nude mice, U-87 MG xenograft, skin","intravenous, 4 h, together with: cRGD 50 mg/kg blocking",,tissue uptake,0.117 ± 0.025 %ID/g
CC[C@H](C)[C@H](NC(=O)[C@H](CO)NC(=O)[C@H](Cc1ccc(O)cc1)NC(=O)[C@H](Cc1ccc(O)cc1)NC(=O)[C@H](CC(N)=O)NC(=O)CNC(=O)[C@H](CO)NC(=O)[C@H](Cc1ccc(O)cc1)NC(=O)[C@H](CO)NC(=O)[C@H](CO)NC(=O)[C@H](CC(N)=O)NC(=O)COCCOCCNC(=O)CN1CCN(CC(=O)O)CCN(CC(=O)O)CCN(CC(=O)O)CC1)C(=O)N[C@@H](CC(C)C)C(N)=O [copper-64 labelled],,dynamic PET,"KPC mouse Ptf1a-CreER tdTomato, metastases","intravenous, 4.6 MBq/mouse, 0.1 min, 84 d after tamoxifen",,tissue uptake,0.08 %ID/mL
O=C1NC(=O)c2c1c1cc(F)c[n+]3c1c1c2c2cc(O)ccc2[n]1[Ru-4]312([N]=C=S)[S+]3CC[S+]1CC[S+]2CC3 (stereo not shown),"GRK6 (Homo sapiens, UniProt P43250)",enzyme activity,,"100 nM, human enzyme, together with: 10 µM ATP",reference: untreated,remaining activity,42%
CCN(CC)C(=O)[C@@H]1C=C2c3cccc4c3c(cn4C(=O)c3ccco3)C[C@H]2N(C)C1,,magnetometer,"C57BL/6J mouse, male","intraperitoneal, 0.5 mg/kg, 30 min session",,head-twitch response count,50.8
O=C(O)c1ccc(-c2nc(-c3ccccc3Cl)c3sccn23)cc1,,,"C57BL/6 mice, 5-fluorouracil treated","dose not given, day 10",,reticulated platelets,17.2% and 11.1% and 22.1% and 19.9%
Cc1ccc(NS(=O)(=O)c2c(C(=O)N3CCCCCC3)c(C)n(C)c2C)c(Cl)c1,Human alphaherpesvirus 1,viral infection,HaCaT,"100 µM, 36 h",reference: untreated,infection,98.4% and 99.6% and 129%
COc1ccccc1-c1n[nH]c2nc(NC3CCN(C(=O)Cc4ccc(F)cc4F)CC3)ncc12,,"bead binding, competition bead pull-down, item: LINJ.35.3900",Leishmania donovani axenic amastigote extract,10 µM,reference: vehicle,relative abundance,0.84
CC(C)CC(C(=O)N1CC2(CC1C#N)C(=O)Nc1ccccc12)N(C)C(=O)c1cc2c(F)cc(F)c(F)c2[nH]1 (stereo not shown),human coronavirus 229E,viral replication,,0.1 µM,,inhibition,100%
Cc1ccc(N2CC3CC(C2)N3C)cc1C(=O)NC1(c2ccc3c4c(cccc24)C(=O)N3C)CC1,Mink-PLpro,"enzyme activity, inhibitor",,100 µM,,inhibition,99.1% and 102%
Cc1cc(C(=O)Nc2nc3cccc(C)c3n2[C@H]2CCCCN(C(=O)/C=C/CN(C)C)C2)ccn1,Trypanosoma brucei,"cell growth, Alamar Blue",2T1 overexpressing Tb927.11.2040,,reference: parental 2T1,EC50 fold shift,0.66 fold and 0.58 fold
CC(C)CC(O)(CC(C)C)c1cn(C(=O)N2CCCC2)nn1,"Isoamyl acetate-hydrolyzing esterase 1 homolog (Iah1, Mus musculus, UniProt Q9DB29)","probe labelling, inhibitor, competitive ABPP-SILAC, item: Iah1",mouse T cells,"concentration not given, 4 h, protein level","reference: treated over DMSO cells, lower = stronger inhibition",median SILAC activity ratio,1.17
Nc1ncc(-c2cc(-c3cnn(CC(F)(F)F)c3)ncc2F)nc1C(=O)NC1CNCC(F)C1 (stereo not shown),ABL1(F317I)-phosphorylated,KINOMEscan competition binding,,1 µM,reference: DMSO control,remaining binding,99%
O=C(C[Se]C(=O)c1cccs1)Nc1cccc(C(F)(F)F)c1,NCI60 renal subpanel,cell growth,,"10 µM, 48 h, one-dose",,mean growth percent,-81.9%
COc1cc(CN2CCC3(C=Cc4ccccc43)CC2)cc2c1OCO2,Mycobacterium tuberculosis,bacterial growth,,,,IC50,500 nM
O=C1NC2(CC2)COc2ncc(F)cc2[C@H]2COCCN2c2ccn3ncc1c3n2,,,"Sprague-Dawley rat, male, blood","oral, 10 mg/kg/day, end of recovery, 4-week repeated-dose toxicity",reference: red blood cells,reticulocytes,2.71 ± 0.63%
CC(C)(C)C(=O)OCOP(=O)(OCOC(=O)C(C)(C)C)C1CCCN(O)C1=O (stereo not shown),SK-OV-3,,,,,GI50,508 nM
CC[C@H](C)[C@@H]([C@@H](CC(=O)N1CCC[C@H]1[C@H](OC)[C@@H](C)C(=O)N[C@H](C)[C@@H](O)c1ccccc1)OC)N(C)C(=O)[C@@H](NC(=O)[C@H](C(C)C)N(C)C(=O)OCc1ccc(NC(=O)[C@H](CCCNC(N)=O)NC(=O)[C@@H](NC(=O)CCCCCN2C(=O)CC(SC[C@H](NC(=O)[C@H](CC(=O)O)NC(=O)[C@H](Cc3ccc(O)cc3)NC(=O)[C@H](Cc3c[nH]c4ccccc34)NC(=O)[C@@H](N)CCCNC(=N)N)C(=O)O)C2=O)C(C)C)cc1)C(C)C (stereo partly shown),,,"C57BL/6 mouse, healthy, heart","intraperitoneal, 2.5 mg/kg, 6 h",,concentration,not detected
CN1C(=O)C(C2C3=C(CC(C)(C)CC3=O)Oc3ccc(Cl)cc32)C(=O)N(C)C1=O (stereo not shown),3T3-L1 mature adipocytes,"lipolysis, Oil Red O staining",,IC20,,mean lipid content,0.641 OD492
COc1ccccc1-c1ccncc1C(=O)Nc1nnc(OCc2ccc(Cl)cc2)s1,RPE-1 BRCA1 WT parental,,,"8 µM, run 2",reference: untreated,colony survival,76.3%
CN(C)[C@H]1C[C@@]23CC[C@@]4(O2)C(=CC[C@]2(C)[C@@H](c5ccc6ccncc6c5)CC[C@H]24)C=C3[C@@H](O)[C@@H]1O,"CAMK1 (Homo sapiens, UniProt Q14012)","ATP probe labelling, inhibitor, KiNativ profiling",,0.1 µM,,inhibition,-10.9%
CCCCCC1=C(NCC)C(=O)C(C/C=C(\C)CCC=C(C)C)=C(O)C1=O,,"RNA-seq, item: Stat1 regulon","mouse, striatum",dose not given,direction not given,normalised enrichment score,1.91
[2H]C([2H])([2H])C1(C([2H])([2H])[2H])NC(=O)N(c2ccc(F)c(C(F)(F)F)c2)C1=O,Schistosoma mansoni,,"adult stage, infected mice","oral, 25 mg/kg",reference: untreated infected,worm burden reduction,100%
O=C(C[Se]C(=O)c1ccco1)Nc1cccc(C(F)(F)F)c1,NCI60 non-small-cell lung subpanel,cell growth,,"10 µM, 48 h, one-dose",,mean growth percent,-22.1%
C#CCNC(=O)C1(O/N=C(\C(=O)N[C@@H]2C(=O)N(OS(=O)(=O)O)C2(C)C)c2csc(N)n2)CC1,Enterobacter aerogenes,agar dilution,ATCC 13048 susceptible,,,MIC,4 µg/mL
CS(C)(=O)=Nc1ccc(-c2ccc(-c3nc4cc(O[C@@H]5CO[C@H]6[C@@H]5OC[C@H]6O)[nH]c4cc3F)cc2)cc1,"BMX (Homo sapiens, UniProt P51813)","enzyme activity, inhibitor",,10 µM,,inhibition,-12%
CCN(CC)C(=O)[C@@H]1C=C2c3cccc4c3c(cn4C(=O)c3cccs3)C[C@H]2N(C)C1,,"head-twitch response, magnetometer detection",mouse C57BL/6J male,"intraperitoneal, 30 min session",,ED50,0.78 mg/kg
CC1(C)CC(=O)C2=C(C1)Oc1ccccc1C2C1C(=O)NC(=O)NC1=O (stereo not shown),3T3-L1,"cell growth or viability, MTT",,72 h,,IC20,47.4 µg/mL

# A few entries again:
SMILES,tested on,test,test system,setting,scale,endpoint,result
Nc1ncc(-c2cc(-c3cnn(CC(F)(F)F)c3)ncc2F)nc1C(=O)NC1CNCC(F)C1 (stereo not shown),ABL1(F317I)-phosphorylated,KINOMEscan competition binding,,1 µM,reference: DMSO control,remaining binding,99%
Cc1ccc(C2=CC(C)(C)Oc3ccc(-c4ccc(-c5ccc(C(=O)O)cc5)[nH]4)cc32)cc1,,,"CD-1 mouse, male, testis","20 mg/kg/day, 2 weeks, one day after dosing end",,tubules with failed spermatid translocation,29.3% and 7.5%
COc1ccccc1-c1ccncc1C(=O)Nc1nnc(OCc2ccc(Cl)cc2)s1,RPE-1 BRCA1 WT parental,,,"8 µM, run 2",reference: untreated,colony survival,76.3%
